Experimental data of several laboratories.
Lines come from different studies, so protocols differ. ± marks the error that the study gave.
Adenosylmethionine-8-amino-7-oxononanoate aminotransferase: Adenosylmethionine-8-amino-7-oxononanoate aminotransferase (Mycobacterium tuberculosis, UniProt P9WQ81)
Sequence of UniProt P9WQ81 (whole entry, looked up): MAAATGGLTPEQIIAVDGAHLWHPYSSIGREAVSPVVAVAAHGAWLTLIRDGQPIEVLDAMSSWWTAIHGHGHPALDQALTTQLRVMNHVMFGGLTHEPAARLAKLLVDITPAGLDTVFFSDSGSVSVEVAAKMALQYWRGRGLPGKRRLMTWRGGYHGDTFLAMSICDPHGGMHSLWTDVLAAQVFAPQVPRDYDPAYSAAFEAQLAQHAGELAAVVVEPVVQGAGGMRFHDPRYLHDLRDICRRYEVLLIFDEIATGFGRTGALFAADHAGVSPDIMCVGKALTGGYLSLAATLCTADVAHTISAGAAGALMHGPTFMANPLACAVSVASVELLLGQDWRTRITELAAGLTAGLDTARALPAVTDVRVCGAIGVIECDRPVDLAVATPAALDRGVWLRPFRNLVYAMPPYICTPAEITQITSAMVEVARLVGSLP
Replicase polyprotein 1ab main protease: Replicase polyprotein 1ab, main protease (Human coronavirus OC43, UniProt P0C6X6)
Dihydrolipoyl dehydrogenase: Dihydrolipoyl dehydrogenase (Mycobacterium tuberculosis, UniProt P9WHH9)
Sequence of UniProt P9WHH9 (whole entry, looked up): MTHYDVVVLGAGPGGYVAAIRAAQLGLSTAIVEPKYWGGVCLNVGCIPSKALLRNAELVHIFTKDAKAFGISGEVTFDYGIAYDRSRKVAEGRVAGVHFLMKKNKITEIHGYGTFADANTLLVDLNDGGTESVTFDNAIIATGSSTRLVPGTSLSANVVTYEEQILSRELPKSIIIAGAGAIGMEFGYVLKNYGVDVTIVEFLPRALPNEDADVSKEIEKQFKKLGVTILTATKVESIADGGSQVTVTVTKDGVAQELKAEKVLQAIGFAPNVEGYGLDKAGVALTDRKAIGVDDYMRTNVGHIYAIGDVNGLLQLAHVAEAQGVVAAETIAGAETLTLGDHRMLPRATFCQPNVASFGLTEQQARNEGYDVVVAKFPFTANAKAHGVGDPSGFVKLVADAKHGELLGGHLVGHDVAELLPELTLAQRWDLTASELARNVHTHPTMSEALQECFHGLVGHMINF
DNA ligase A: DNA ligase A (Mycobacterium tuberculosis, UniProt P9WNV1)
Genome polyprotein protease: Genome polyprotein, protease (Coxsackievirus B3, UniProt P03313)
Sequence of UniProt P03313 (whole entry, looked up): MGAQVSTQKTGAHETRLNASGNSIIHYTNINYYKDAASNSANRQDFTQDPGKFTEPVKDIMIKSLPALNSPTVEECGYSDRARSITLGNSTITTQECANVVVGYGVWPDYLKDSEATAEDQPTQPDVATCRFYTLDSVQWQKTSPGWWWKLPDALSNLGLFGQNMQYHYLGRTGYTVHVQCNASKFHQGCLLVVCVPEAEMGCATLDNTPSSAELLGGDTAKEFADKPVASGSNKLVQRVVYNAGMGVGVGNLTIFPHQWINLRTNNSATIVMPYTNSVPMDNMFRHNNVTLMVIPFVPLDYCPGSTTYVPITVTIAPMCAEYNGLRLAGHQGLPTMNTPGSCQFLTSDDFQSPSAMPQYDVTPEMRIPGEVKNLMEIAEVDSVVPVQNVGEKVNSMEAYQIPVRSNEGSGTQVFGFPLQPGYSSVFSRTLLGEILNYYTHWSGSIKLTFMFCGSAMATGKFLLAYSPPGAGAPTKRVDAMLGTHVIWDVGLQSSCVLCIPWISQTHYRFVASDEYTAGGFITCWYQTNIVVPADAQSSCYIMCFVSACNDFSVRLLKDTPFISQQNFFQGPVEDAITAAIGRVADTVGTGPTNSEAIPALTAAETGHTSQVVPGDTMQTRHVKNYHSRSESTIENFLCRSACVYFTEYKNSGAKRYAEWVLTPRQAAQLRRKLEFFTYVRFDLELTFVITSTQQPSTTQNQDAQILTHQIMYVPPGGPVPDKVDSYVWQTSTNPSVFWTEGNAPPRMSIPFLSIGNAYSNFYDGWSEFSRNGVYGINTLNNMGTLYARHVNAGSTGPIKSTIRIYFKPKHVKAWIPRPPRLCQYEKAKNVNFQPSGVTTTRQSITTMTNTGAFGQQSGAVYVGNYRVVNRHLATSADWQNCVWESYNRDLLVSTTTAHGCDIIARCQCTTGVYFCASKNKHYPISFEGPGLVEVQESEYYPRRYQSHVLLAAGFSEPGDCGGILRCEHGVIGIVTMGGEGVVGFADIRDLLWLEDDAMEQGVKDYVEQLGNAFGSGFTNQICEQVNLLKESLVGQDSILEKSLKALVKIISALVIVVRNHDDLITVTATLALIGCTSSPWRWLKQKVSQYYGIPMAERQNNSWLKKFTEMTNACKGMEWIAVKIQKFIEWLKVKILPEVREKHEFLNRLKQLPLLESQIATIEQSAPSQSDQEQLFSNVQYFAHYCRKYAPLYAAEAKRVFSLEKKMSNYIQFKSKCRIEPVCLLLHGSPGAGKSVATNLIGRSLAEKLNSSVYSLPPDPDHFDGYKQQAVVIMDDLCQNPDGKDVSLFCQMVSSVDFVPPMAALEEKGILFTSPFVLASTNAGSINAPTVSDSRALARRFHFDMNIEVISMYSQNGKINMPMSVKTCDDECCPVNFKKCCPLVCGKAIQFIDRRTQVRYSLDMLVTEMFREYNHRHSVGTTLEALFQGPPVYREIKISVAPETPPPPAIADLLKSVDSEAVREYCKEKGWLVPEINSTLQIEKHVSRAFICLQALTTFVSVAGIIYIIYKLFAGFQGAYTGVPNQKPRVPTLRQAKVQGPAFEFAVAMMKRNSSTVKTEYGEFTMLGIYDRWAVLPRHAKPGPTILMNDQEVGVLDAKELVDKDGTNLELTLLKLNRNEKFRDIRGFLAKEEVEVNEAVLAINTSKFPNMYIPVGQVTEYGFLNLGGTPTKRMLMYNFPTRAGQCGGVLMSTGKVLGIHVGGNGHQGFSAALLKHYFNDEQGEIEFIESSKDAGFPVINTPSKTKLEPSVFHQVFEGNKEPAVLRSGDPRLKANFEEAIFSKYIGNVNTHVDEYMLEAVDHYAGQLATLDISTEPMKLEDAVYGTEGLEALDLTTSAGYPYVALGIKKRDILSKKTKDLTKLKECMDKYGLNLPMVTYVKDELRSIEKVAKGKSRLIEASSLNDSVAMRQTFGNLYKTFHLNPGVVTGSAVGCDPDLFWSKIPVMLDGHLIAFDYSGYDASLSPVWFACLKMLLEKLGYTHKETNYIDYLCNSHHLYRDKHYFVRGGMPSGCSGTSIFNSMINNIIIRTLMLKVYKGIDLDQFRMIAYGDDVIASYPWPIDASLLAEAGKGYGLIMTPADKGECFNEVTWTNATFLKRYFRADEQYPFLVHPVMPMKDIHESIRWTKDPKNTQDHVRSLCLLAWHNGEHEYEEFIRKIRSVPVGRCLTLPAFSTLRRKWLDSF
Sequence of UniProt Q8NER1 (whole entry, looked up): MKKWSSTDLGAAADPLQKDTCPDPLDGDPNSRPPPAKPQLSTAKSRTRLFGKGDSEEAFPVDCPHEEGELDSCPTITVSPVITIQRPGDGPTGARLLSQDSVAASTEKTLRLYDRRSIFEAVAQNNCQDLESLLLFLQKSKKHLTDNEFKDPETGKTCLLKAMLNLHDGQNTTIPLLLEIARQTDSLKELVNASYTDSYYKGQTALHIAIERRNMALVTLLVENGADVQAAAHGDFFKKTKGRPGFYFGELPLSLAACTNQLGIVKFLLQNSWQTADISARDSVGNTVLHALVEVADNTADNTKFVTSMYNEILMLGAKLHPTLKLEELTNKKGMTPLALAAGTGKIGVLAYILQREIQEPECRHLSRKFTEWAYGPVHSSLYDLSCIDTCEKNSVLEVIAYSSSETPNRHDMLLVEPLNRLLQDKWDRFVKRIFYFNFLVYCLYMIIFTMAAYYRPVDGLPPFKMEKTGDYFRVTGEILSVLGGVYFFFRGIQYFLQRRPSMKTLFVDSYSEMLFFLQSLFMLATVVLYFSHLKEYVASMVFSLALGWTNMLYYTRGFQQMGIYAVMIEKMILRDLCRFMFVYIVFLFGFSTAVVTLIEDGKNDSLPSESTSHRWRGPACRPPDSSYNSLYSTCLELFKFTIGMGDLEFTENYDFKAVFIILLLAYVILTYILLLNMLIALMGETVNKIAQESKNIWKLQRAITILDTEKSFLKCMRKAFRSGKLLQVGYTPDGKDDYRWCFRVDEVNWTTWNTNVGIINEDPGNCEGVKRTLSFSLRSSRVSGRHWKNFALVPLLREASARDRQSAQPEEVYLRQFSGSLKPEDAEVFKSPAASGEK
Sequence of UniProt Q0P543 (whole entry, looked up): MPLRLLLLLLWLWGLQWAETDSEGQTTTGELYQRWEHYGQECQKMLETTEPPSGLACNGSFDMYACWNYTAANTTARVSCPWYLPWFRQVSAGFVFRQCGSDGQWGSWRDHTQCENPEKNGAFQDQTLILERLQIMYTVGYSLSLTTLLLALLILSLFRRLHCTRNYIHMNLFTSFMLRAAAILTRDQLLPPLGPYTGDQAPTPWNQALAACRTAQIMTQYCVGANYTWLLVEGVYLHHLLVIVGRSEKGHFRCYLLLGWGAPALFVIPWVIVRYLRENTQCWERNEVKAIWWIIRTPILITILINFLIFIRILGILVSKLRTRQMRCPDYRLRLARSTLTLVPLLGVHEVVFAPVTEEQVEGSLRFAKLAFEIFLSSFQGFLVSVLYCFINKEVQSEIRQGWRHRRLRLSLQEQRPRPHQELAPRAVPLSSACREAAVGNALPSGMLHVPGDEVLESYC
Sequence of UniProt P47870 (whole entry, unmodified, looked up): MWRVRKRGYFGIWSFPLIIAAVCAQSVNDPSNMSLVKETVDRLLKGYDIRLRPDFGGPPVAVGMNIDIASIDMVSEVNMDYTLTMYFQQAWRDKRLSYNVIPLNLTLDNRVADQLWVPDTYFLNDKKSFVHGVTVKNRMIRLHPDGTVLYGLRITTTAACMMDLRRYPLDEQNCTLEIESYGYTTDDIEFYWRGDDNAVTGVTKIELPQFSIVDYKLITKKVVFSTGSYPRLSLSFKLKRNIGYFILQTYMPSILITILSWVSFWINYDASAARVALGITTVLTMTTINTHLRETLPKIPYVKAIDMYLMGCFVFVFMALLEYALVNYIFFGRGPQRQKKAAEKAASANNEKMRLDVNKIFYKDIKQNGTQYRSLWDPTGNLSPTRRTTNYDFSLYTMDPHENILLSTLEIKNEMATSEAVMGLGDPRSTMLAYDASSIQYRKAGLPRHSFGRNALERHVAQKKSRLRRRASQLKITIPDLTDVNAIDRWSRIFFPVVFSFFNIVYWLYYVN

Structure (SMILES)	target	assay	test system	setting	IC50 [µM]
O=C(Cc1nc2cc(Cl)c(Cl)cc2nc1CC(=O)c1cccnc1)c1cccnc1	Adenosylmethionine-8-amino-7-oxononanoate aminotransferase	inhibitor, biochemical			175
C=CC(=O)NC(CC(=C)C)C(=O)N1CC(C(=O)NC(CCSC)C(=O)NC)C(c2cccc(C(F)(F)F)c2)C1 (stereo not shown)	Replicase polyprotein 1ab main protease				> 100
COc1ccc(NC(=O)CN(C)S(=O)(=O)c2cc(C)cnc2N)cn1	Dihydrolipoyl dehydrogenase	enzyme activity, inhibitor		with: 50 nM enzyme	0.331
CC1(C)OC2OC(C(CCO)NCCCNC(CCO)C3OC4OC(C)(C)OC4C3OCc3ccccc3)C(OCc3ccccc3)C2O1 (stereo not shown)	DNA ligase A	enzyme activity, inhibitor		1 h, 25 °C, 10% DMSO, with: 50 µM NAD+	46.2 ± 1.6
Nc1ccc(/C=C/C(=O)N2CCc3c(oc4c(-c5ccc(F)cc5)cc(-c5ccc(C(=O)N6CCC(F)(F)CC6)cn5)cc34)C2)cn1	Serine/threonine-protein kinase PAK 4, phosphorylated (PAK4, Homo sapiens, UniProt O96013)	phosphorylation, Western blot, item: phospho-PAK4	MIA PaCa-2	72 h	0.84
COc1ccc(NC(=O)CN(C)S(=O)(=O)c2cc(C)cc3cn[nH]c23)cc1Cl	Dihydrolipoyl dehydrogenase	enzyme activity, inhibitor		with: 50 nM enzyme	0.035
COc1cc(CC(C#N)C(O)c2ccccc2)cc(I)c1O (stereo not shown)	Pup deamidase/depupylase (dop, Mycolicibacterium smegmatis, UniProt A0QZ49)	enzyme activity, inhibitor		30 min preincubation, with: Pup-Glu(AMC) substrate, ATP 1 mM	> 100
Fc1ccccc1CCNCc1cccc(Cl)c1Cl	SLC6A2 (Homo sapiens, UniProt P23975)	transporter uptake, inhibitor, radiometric			5.57
C=C1CC(COc2ccc3c(C)cc(=O)oc3c2)(c2ccccc2)OC1=O (stereo not shown)	Adenosylmethionine-8-amino-7-oxononanoate aminotransferase	inhibitor, biochemical			28.9 ± 4.11
CCCn1c(NCc2ccc(N3N=C(c4ccccc4)CC3c3ccccc3)cc2)nc2ccccc21 (stereo not shown)	Genome polyprotein protease	enzyme activity, inhibitor			6.1
CCCC[C@H]1C(=O)N[C@@H](C(C)C)C(=O)N[C@@H](Cc2ccc(O)cc2)C(=O)N[C@@H](C(C)C)C(=O)N[C@@H](CCCNC(=N)N)C(=O)N[C@@H](Cc2ccc(O)cc2)C(=O)N[C@@H](CCC(N)=O)C(=O)N(C)[C@@H](Cc2ccccc2)C(=O)N[C@H](C(N)=O)CSCC(=O)N[C@@H](Cc2ccccc2)C(=O)N[C@@H](Cc2c[nH]c3ccccc23)C(=O)N[C@@H](CC(C)C)C(=O)NCC(=O)N[C@@H](CCCCN)C(=O)N1C	AT-rich interactive domain-containing protein 1B (ARID1B, Homo sapiens, UniProt Q8NFD5)	binding, TR-FRET		1% DMSO, with: tracer 4-cy5 30 nM	0.038
C=CCC(NC(=O)C1CN(C(=O)C(CC(=C)C)NC(=O)C=C)CC1c1cccc(C(F)(F)F)c1)C(=O)NC (stereo not shown)	Replicase polyprotein 1ab, main protease (rep, Human coronavirus HKU1, UniProt P0C6X2)				> 100
CC(C)c1nc2cc(O)ccc2c(=O)n1-c1ccc(C#N)cc1	TRPV1 (Homo sapiens, UniProt Q8NER1)	calcium signal, antagonist, fluorescence			0.35
Cc1cccc(C)c1N1Cc2cnc(Nc3ccc(N4CCN(C)CC4)cc3)nc2N(C23CC4CC(CC(C4)C2)C3)C1=O	SIK3 (Homo sapiens, UniProt Q9Y2K2)	enzyme activity, inhibitor			> 0.02
Cc1cnc(N)c(S(=O)(=O)N(C)CC(=O)Nc2ccc(OCCN(C)C)c(Cl)c2)c1	Dihydrolipoyl dehydrogenase	enzyme activity, inhibitor		with: 50 nM enzyme	0.11
COc1ccccc1/N=C/c1nc(-c2ccccc2)oc1OC(C)=O	Genome polyprotein protease	enzyme activity, inhibitor			> 50
CC1C(=NOCc2cc(-c3ccc(Cl)cc3)no2)C(C)C(c2ccc(Br)cc2)OC1c1ccc(Br)cc1 (stereo not shown)	DNA gyrase subunit B, with GyrA (gyrB, Mycobacterium tuberculosis, UniProt P9WG45)	ATPase activity, inhibitor			10.5
COc1cc(N2CCN(C)CC2)ccc1Nc1ncc2c(n1)N(C1CCC1)C(=O)N(c1c(C)cccc1C)C2	SIK1 (Homo sapiens, UniProt P57059)	enzyme activity, inhibitor			0.007
C=CC(=O)NC(CC(=C)C)C(=O)N1CC(C(=O)NC(Cc2ccccc2)C(=O)NC)C(c2cccc(C(F)(F)F)c2)C1 (stereo not shown)	Replicase polyprotein 1ab main protease				37.4
CC1(C)O[C@H]2OC(CNCCCCCCCCCCCCNCC3O[C@@H]4OC(C)(C)O[C@@H]4[C@H]3OCc3ccccc3)[C@H](OCc3ccccc3)[C@H]2O1 (stereo partly shown)	DNA ligase A	enzyme activity, inhibitor		1 h, 25 °C, 10% DMSO, with: 50 µM NAD+	11.4 ± 1.2
C=C(C)C1C2OC(=O)C1C1(O)CC3OC34C(=O)OC2C14C (stereo not shown)	GABA-A receptor; GABA-A site (alpha1/beta2 interface) (Homo sapiens, UniProt P14867+P47870, V284A)	ion current, two-electrode voltage clamp		oocytes	24.5
CC[C@H](C)[C@H](NC(=O)[C@H](CO)NC(=O)[C@H](Cc1ccc(O)cc1)NC(=O)[C@H](CC(=O)O)NC(=O)[C@H](CO)NC(=O)[C@@H](NC(=O)[C@H](Cc1ccccc1)NC(=O)[C@@H](NC(=O)CNC(=O)[C@H](CCC(=O)O)NC(=O)[C@H](C)NC(=O)[C@@H](N)Cc1ccc(O)cc1)[C@@H](C)O)[C@@H](C)CC)C(=O)N[C@@H](C)C(=O)N[C@@H](CCSC)C(=O)N[C@@H](CC(=O)O)C(=O)N[C@@H](CCCCN)C(=O)N[C@H](C(=O)N[C@@H](CCCNC(=N)N)C(=O)N[C@@H](CCC(N)=O)C(=O)N[C@@H](CCC(N)=O)C(=O)N[C@@H](CC(=O)O)C(=O)N[C@@H](Cc1ccccc1)C(=O)N[C@H](C(=O)N[C@@H](CC(N)=O)C(=O)N[C@@H](Cc1c[nH]c2ccccc12)C(=O)N[C@@H](CC(C)C)C(=O)N[C@@H](CC(C)C)C(=O)N[C@@H](C)C(=O)N[C@@H](CCC(N)=O)C(=O)N[C@@H](CCCCN)C(=O)NCC(=O)N[C@@H](CCCCN)C(=O)N[C@@H](CCCCN)C(=O)N[C@@H](CC(N)=O)C(=O)N[C@@H](CC(=O)O)C(=O)N[C@@H](Cc1c[nH]c2ccccc12)C(=O)N[C@@H](CCCCN)C(=O)N[C@@H](Cc1c[nH]cn1)C(=O)N[C@@H](CC(N)=O)C(=O)N[C@@H](CC(C)C)C(=O)N[C@H](C(=O)N[C@@H](CCC(N)=O)C(=O)O)[C@@H](C)O)C(C)C)[C@@H](C)CC	Gastric inhibitory polypeptide receptor (Mus musculus, UniProt Q0P543)			4 h, 4 °C	0.000251

Excerpt of the above:
Structure (SMILES)	target	assay	test system	setting	IC50 [µM]
Nc1ccc(/C=C/C(=O)N2CCc3c(oc4c(-c5ccc(F)cc5)cc(-c5ccc(C(=O)N6CCC(F)(F)CC6)cn5)cc34)C2)cn1	Serine/threonine-protein kinase PAK 4, phosphorylated (PAK4, Homo sapiens, UniProt O96013)	phosphorylation, Western blot, item: phospho-PAK4	MIA PaCa-2	72 h	0.84
COc1ccc(NC(=O)CN(C)S(=O)(=O)c2cc(C)cc3cn[nH]c23)cc1Cl	Dihydrolipoyl dehydrogenase	enzyme activity, inhibitor		with: 50 nM enzyme	0.035
COc1cc(CC(C#N)C(O)c2ccccc2)cc(I)c1O (stereo not shown)	Pup deamidase/depupylase (dop, Mycolicibacterium smegmatis, UniProt A0QZ49)	enzyme activity, inhibitor		30 min preincubation, with: Pup-Glu(AMC) substrate, ATP 1 mM	> 100
